Results of several laboratories.
Each numbered part is a random draw from the data of one study; scales do not carry over between parts. Changes are numbered by the printed parent chain.

Sample 1
Target: Histone acetyltransferase KAT6A, winged helix 2, GST fusion (KAT6A, Homo sapiens, UniProt Q92794, residues 85-181)
Method: protein binding microarray
Molecule type: double-stranded DNA, one strand shown
Sample: in vitro
Concentration: not given
Setting: 8-mer, flanks averaged, mean of 2 arrays, mostly near background
Relative to: not given
Direction: higher = stronger binding
Residues (chain): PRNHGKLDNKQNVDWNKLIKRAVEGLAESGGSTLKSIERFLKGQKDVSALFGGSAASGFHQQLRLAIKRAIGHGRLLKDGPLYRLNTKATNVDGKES
| Oligonucleotide | E-score |
| --- | --- |
| GGGCTGGA | 0.091 |
| CATGCCTC | 0.0378 |
| GGGACTGA | -0.0545 |
| ACTTTGTC | -0.131 |
| CTTGTAGC | -0.0026 |
| CACAGAAG | 0.0409 |
| GGGTGATA | -0.106 |
| GTACTGAC | -0.124 |
| CGCTAACG | 0.0446 |
| ACTCCCAC | 0.0198 |
| AATTATCA | 0.149 |
| GCGGCGCC | 0.321 |
| CAAAAGCC | 0.061 |
| ATAGGGCC | -0.0149 |
| GTTATTAA | 0.0657 |
| CCGTCGAG | 0.131 |
| CCCCTTGA | 0.0929 |
| GTTTTATA | 0.0258 |
| CTTCACGA | -0.147 |
| CGAGGGCA | 0.144 |
| AAAGCTCG | 0.0736 |
| GACGACAA | 0.0405 |
| CTCAGGTC | 0.135 |
| ACCGTGAA | -0.0569 |

Sample 2
Target: RNA binding protein fox-1 homolog 2, RRM domain, GST-SBP tag (RBFOX2, Homo sapiens, UniProt O43251-10, residues 100-194)
Method: RNA Bind-n-Seq
Molecule type: RNA
Sample: in vitro
Concentration: 365 nM
Setting: natural RNA segment, single round, ends assumed
Relative to: no-protein control
Direction: higher = stronger binding
Shared flanks, not repeated: GGGAGUUCUACAGUCCGACGAUC … UGGAAUUCUCGGGUGCCAA
Construct (chain): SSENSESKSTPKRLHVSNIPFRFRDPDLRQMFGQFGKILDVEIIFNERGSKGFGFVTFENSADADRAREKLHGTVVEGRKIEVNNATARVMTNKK
| Oligonucleotide | RBNS enrichment (R) |
| --- | --- |
| CCCACUUUGGAUUGGUGGAAGUAAAAACUGGUAACUCACUCAAGUGAAUGAAUGGUCUUGCAUUUUAAAAGCUUAUGGGAAACUCAAUUUGAAAUGAUUAGAAAAUGUCA | 1.06 |
| AGAGUGCAGUGGAGUUGCGCUGGCCAUCAGUGUUUGGGGUCUGAGUUUGAUAGACUAGUGCAGCGAUCAGCCAUAUGAUUGAGAGCUACUUUGGGGAUAUAUGGUACGUU | 1.49 |
| GACUGAAUUAUGUGACUUUAAAGGAUGUAACUGCCCAACAUUUGCAGAUUCUGGGUGGUCUAUGUGACCAUUUGUCUCGUAUCCAAAAACCCCGGGGCUAUUGGAACCCU | 0.367 |
| GCAUUAGUUUAAAAUGUCGUUUUUGUUACAGCACAAAGGUUUUGUUUACCCGUCAAGUAUUAGCAGCAGUAUUUCUCCCACACGGAGAAGCCUGUGCACAAGUAGCAUGG | 1.97 |
| CGAUGCGACCAAGUGUCAGGCUCUAUGUGCCAUGCUUCAGAGUGCCCACCUUGAGAGAAGCCACCUUGUAGUCAGAGUGAGCAGACACAGUUACGUCAAACAUACAUCUC | 0.536 |
| GCUUCUCCUCAGAGCCAGGCCCUGACUUGCCUUCUCCCACCCCGUGGACCGCUUCCCCUGCCUUCUCUCUGCCGUGGCCCAGAGCCGGCCCAGCUGCACACACACACCAU | 0.683 |
| CUGUCCUCUUCAUGGUGUCUCUUCCGUGUUUUGCUGAGCUGUUCUCAGGCACCCCCUCACUGCUCCCUCUUGAAAGGGUUGCUAGCCUUAACUUCAGCUGGUGCGAAACA | 0.347 |
| GUCCUGUAUCCUGGAGUAUUAUGUCUCCCCACCUUCUGCAGUUUUCUCUGAACAUGUAUGUUGCCCAUGGUGGGAGCGUGGUCACUGUGCAGUUGUGCACAGAUGUCUUU | 1.22 |
| UCUCCAGGUGUACUGCACUUACCCUCAAUCCAGCCCCGGAGAAGCAAGUGAAAAGGGUGGGUCCCUCAUAGGCUAGAAUGUGCAGCUCUUUCUCCAGGUGGGAUGUAGCA | 3.56 |
| UACAUCAACACAGUGGUGAUGCUGGAGAACGUUACCCAAGGUCUCAUCAGUGUCUCUGCUGUACUGGAAGCCACCUCUGGUUUUCCUCUGAAAUAUUAAAAGACAGAAUC | 0.195 |
| AUUAAAGGCUUUUCUUACUAUGUUUUAACCAAAGAUGUGGAGCAAUCCAAGCCGCAUAUCUACUGCAUUAAAUUUGUCCAUUUGGUUAUUCAUAAUCGGGUAUUGCAUUU | 1.52 |
| GCCUUGAUAAUUAUGAAUUUUUUAUCCAUUACUAACCUUUAAUUUAAUCAAUCAUGUACUUUAGUUUAAUGUAUAAAGAUCCUCUAGAAAAUGAUAAUAUUGUGUAUUAA | 0.766 |

Sample 3
Target: ABI1, truncated, D143A, DHFR fusion (Arabidopsis thaliana, UniProt P49597)
Method: DHFR PCA, dose-response
Sample: yeast
Setting: Hill fit, mean, not affinity
With: (+)-ABA, dose series
Direction: lower = more sensitive
Starting sequence: PYL1, truncated, DHFR fusion (Arabidopsis thaliana, UniProt Q8VZS8); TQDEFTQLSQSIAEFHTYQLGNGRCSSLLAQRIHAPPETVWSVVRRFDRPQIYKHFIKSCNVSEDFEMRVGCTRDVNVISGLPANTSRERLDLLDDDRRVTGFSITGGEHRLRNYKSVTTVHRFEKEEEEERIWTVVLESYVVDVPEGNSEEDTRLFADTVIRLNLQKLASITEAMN
| Variant | ABA EC50 [µM] |
| --- | --- |
| R88C | 2.68 |
| R90Y | 110 |
| V43Y | 10.5 |
| M176Q | 2.55 |
| S63C | 2.88 |
| K126Q | 1.89 |
| L164I | 3.75 |
| R90I | 18.7 |
| E139Q | 0.768 |
| R99S | 73.9 |
| E129T | 1.94 |
| A13P | 68.2 |
| N22D | 1.54 |
| T39D | 2.5 |
| G107Q | 60.4 |
| G23Q | 5.58 |
| G71Q | 170 |
| S104Y | 208 |
| D95W | 95.7 |
| E139N | 5.98 |
| T160G | 24.9 |
| S59E | 1.94 |
| K168L | 77.5 |
| L8S | 139 |

Sample 4
Target: Fragile X messenger ribonucleoprotein 1, C-terminal low-complexity region (Fmr1, Mus musculus, UniProt P35922)
Method: RNA Bind-n-Seq
Molecule type: RNA
Sample: in vitro
Concentration: 200 nM
Setting: whole 134-nt RNA, ends assumed
With: 150 mM LiCl
Relative to: input library
Direction: higher = stronger binding
All molecules: 7-deaza-guanosine replaces G
Shared flanks, not repeated: GGGAGUUCUACAGUCCGACGAUC … UGGAAUUCUCGGGUGUCAAGG
| Oligonucleotide | log2 enrichment |
| --- | --- |
| CCUCAAGUCCUGUGCUACACAUCGUAUGUACCGAAUCGGAAGGAAGGGAAGGAAAGUAUUAUGUUACGCCGUUCGGAUCUGCACUUCCAG | -0.713 |
| CAAGUCCUGUGCUACACAUCGUAUGUACCGAAUCGGGUUUGGGUUUUUGGGUGGGAAAGUAUUAUGUUACGCCGUUCGGAUCUGCACUUC | -1.35 |
| AAGUCCUGUGCUACACAUCGUAUGUACCGAAUCGGAGGUUUUUUUGGAAAAAAAGGAAAGUAUUAUGUUACGCCGUUCGGAUCUGCACUU | -2.23 |
| GUCCUGUGCUACACAUCGUAUGUACCGAAUCGGGAAAAAGGGGAAAAAGGAAAAAGGGAAAGUAUUAUGUUACGCCGUUCGGAUCUGCAC | 0.332 |
| GUCCUGUGCUACACAUCGUAUGUACCGAAUCGGGAAAGGGAAAAAAAGGGAAAAAGGGAAAGUAUUAUGUUACGCCGUUCGGAUCUGCAC | 0.319 |
| CACAGACAACACGCACCCACACAGACACAGAGGGAAGGUGUUGGGAUGGGGACAGGGUGCACAGCAGGGCGGGGUAGGACCCCAGCCCCU | -1.72 |
| CUGUGCUACACAUCGUAUGUACCGAAUCGGGAAAAAAAGGGAAAAAAAGGGUUUUUUUGGGAAAGUAUUAUGUUACGCCGUUCGGAUCUG | -1.67 |
| AGUCCUGUGCUACACAUCGUAUGUACCGAAUCGGAAAAAAAGGAAAGGUUUUUUUGGAAAGUAUUAUGUUACGCCGUUCGGAUCUGCACU | -3.29 |
| UGGAGCACAGGGCGAGCUCUCCUCCGCCCUGCAGCCUCAGGUAAGGAUCCGGACCUUCACUGCUGCCCCAACUGGGGCUCCUCAGCUCGG | -0.482 |
| GUCCUGUGCUACACAUCGUAUGUACCGAAUCAAAUUUAAACCCCCAAAUUUUUUUAAAAAAGUAUUAUGUUACGCCGUUCGGAUCUGCAC | 0.542 |
| UAACUUUAGAGGAGGAUCUGAUGGAUAUGGCAGUGGACGUGGAUUUGGGGAAGGCUAUAAUGGGUAUGGAGGAGGACCUGGAGGUGGCAA | 0.415 |

Sample 5
Target: Hepatocyte nuclear factor 3-alpha (Foxa1, Mus musculus, UniProt P35582, residues 1-468, full length assumed)
UniProt P35582, sequence (whole entry, looked up): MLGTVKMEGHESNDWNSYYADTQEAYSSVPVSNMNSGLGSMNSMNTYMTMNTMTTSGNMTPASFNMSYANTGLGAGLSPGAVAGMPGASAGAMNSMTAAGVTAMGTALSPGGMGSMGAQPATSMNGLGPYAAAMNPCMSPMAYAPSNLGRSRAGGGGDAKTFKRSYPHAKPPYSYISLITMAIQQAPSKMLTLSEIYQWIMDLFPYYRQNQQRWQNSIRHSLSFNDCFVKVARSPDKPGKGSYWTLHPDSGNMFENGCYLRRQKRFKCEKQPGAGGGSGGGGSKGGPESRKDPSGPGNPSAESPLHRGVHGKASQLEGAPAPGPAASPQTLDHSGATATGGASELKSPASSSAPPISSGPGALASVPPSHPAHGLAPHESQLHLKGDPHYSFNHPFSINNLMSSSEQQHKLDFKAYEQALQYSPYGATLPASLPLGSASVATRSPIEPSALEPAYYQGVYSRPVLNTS
Method: EMSA with sequencing
Molecule type: double-stranded DNA, one strand shown
Sample: in vitro
Concentration: 10 and 20 nM
Setting: whole designed probe, mean of two concentrations, ends assumed
Relative to: negative control set to 0
Direction: higher = stronger binding
Shared flanks, not repeated: GTGAGCGGTGCCCATTGATGGGGAAC … TTTCACTGGGATCGTGGGGAC
| Oligonucleotide | normalised bound fraction [ratio] |
| --- | --- |
| TTCTACTGATGTTGTGGCTTTGGTCATGTCCATCATCACTTTATGACCATTATAAGGTCAAATTCAATTGCTTCTGTTTTTGTTTGTTTGTTTGTTTACTTTGATCCCTATCTATATTTTTTGGGGGGATGCTTGTGAATTATCTTAGGAAAGGCAAATGCTCATGTATGTCATATTCTAGCCATAAATCAAG | 0.534 |
| AAAAAAGAAATACATTGAGTCTACTGACAAGATATCCACAACATGTTAAAAAGCCAAGTAGCAAAATATAGTATGCAATCTAATACTACGTAATGTAAACATGCAGATGGTACCTATTTAAGTGTATTTATCTTTCCAAACACACCACATATGTTTATACATGTGTGTGAAAGGGTATACATACACTCAACAG | 0.457 |
| ATCTTCCCCCTCTTCCTTGCCCCACCAGCTCACCTTCCCGGGTTATTTGCACAAAGGAAAATAAATAAAGCCGGCATTCGTTAACGCAGTTCACGCGCATACTGCTGTTTGCTCTGCATCTAACATGGTCCTTACGCGAGGCGTGGCTCCGGGAGAGCAAAGCACCGTGTCAGGCGCATGATCCGGGGTGGCC | 0.384 |
| ATCTTCCCCCTCTTCCTTGCCCCACCAGCTCACCTTCCCGGGTTATTTGCACAAAGGAAAATAAATAAAGCCGGCATTCGTTAACCCTCTTCTGGCGCAAACTGCTGTTTGCTCTGGATCTAACATGGTCCTTTGGCGAGGCGTGGCTCCGGGAGAGCAAAGCACCGTGTCAGGGCCATGATCCGGGCTCGCC | 0.368 |
| TTTCCTGGCTGGCAGTTCCTGGGAGGGAGGGGCTCCAGCAGCCGGGAGGCAGGGTGCCGGCCTGCAGTGGCCTATCTTGGTCCCTGCCCAGAGTAAATAAAGGCCGAGCATCTCAGCACGGCTGCCACACCCCCGACTCCACTTCCTCCCTTTGGGGATTCCTGTTGGCTTCTGTGTCCTAGCCTGGCACCCC | 0.367 |

Sample 6
Target: RING finger protein unkempt homolog, zinc fingers 1-6, SBP tag (UNK, Homo sapiens, UniProt Q9C0B0, residues 30-357)
UniProt Q9C0B0, sequence (30-357, looked up): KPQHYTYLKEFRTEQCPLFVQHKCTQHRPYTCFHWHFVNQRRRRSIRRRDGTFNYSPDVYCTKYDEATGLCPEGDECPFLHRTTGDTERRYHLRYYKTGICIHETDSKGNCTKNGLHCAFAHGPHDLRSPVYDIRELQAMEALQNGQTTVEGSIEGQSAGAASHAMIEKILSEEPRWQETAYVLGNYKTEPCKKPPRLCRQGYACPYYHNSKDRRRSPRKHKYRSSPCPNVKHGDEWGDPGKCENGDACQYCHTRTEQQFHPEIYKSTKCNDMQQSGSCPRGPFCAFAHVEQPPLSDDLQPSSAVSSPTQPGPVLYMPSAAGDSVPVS
Method: RNA Bind-n-Seq
Molecule type: RNA
Sample: in vitro
Concentration: 100 nM
Setting: RNA with constant flanks, vertebrate orthologous sites, ends assumed
Relative to: input RNA pool
Direction: higher = stronger binding
Shared flanks, not repeated: GGGAGUUCUACAGUCCGACGAUC … CAACAGAGGAUUGAGCAUCA
| Oligonucleotide | bound/input enrichment [ratio] |
| --- | --- |
| UUCGCUGAGCGGCAGCCUGCCAUCAGUGGCCGACUCCCACUCCAGCCACUUCUCUGAGUUCAGCUGCUCCGACCUGGAGAGCAUGAAGACCUCAUGUAGCCACGGCUCCAGCGGUGGUGA | 0.242 |
| CAGGGUGGGACCUGGGCCCCACCACUCAGUGGCCCACUGGCCAUCUCAGCCAAGCCACUUUAGGUCCAUUUUUUAUUUUAACAAUGCUCUUCCAACCUGUGCAUAAGCCUGAGAUUUGGA | 1.87 |
| UUGGGACCAGCUCUCCAAAUAGGAAUAAUAGUAAAAAAAAUAAGCAAAAUGAUAUUUGUAUAGAAAAAACAGAAGUUAAAUCAUGUAAAGUAAAUGCUGCCAACGUUCCGGGCCCUAAAG | 4.05 |
| GGGACGCUUUGAUGUAAAAAUUGAAGUUAAGAGCUGAUCACAAGCACAAAUCCUCCCCACUAGCCAUUUAAUAAGUUAAAAAAUUACAAAAACAAAAACCUACUAGUCUUGAACAAACUG | 8.32 |
| UUUGAUUUUAUGUGUUUAAAAGGCUUAAGAAACAUUGCUUUAAAAAAGAAGGAAAAAAAGGCAAAUAGAGCAAACUUGUUGAAAUAGAAGAGAGUUUUAGGUAGAGAUGUACUCGCUUUG | 0.252 |
| CUGUUGUGUGAGACAUGUCUAUCCAGAGAAGUAACAUUCUAUAAAUAUUAUCAGAUAAUUUAGCUAGAGUAUUUUUAGGUAUUAAAUUAUAUGUCAAGCAUUUAAAGUGAAUUUGAGAUU | 0.74 |
